Experimental data of several laboratories.
Parts stem from different laboratories: compare values within a part only. Values joined by “and” are separate records of one study, mostly repeats; a detail may differ.
UniProt P42338, sequence (whole entry, looked up): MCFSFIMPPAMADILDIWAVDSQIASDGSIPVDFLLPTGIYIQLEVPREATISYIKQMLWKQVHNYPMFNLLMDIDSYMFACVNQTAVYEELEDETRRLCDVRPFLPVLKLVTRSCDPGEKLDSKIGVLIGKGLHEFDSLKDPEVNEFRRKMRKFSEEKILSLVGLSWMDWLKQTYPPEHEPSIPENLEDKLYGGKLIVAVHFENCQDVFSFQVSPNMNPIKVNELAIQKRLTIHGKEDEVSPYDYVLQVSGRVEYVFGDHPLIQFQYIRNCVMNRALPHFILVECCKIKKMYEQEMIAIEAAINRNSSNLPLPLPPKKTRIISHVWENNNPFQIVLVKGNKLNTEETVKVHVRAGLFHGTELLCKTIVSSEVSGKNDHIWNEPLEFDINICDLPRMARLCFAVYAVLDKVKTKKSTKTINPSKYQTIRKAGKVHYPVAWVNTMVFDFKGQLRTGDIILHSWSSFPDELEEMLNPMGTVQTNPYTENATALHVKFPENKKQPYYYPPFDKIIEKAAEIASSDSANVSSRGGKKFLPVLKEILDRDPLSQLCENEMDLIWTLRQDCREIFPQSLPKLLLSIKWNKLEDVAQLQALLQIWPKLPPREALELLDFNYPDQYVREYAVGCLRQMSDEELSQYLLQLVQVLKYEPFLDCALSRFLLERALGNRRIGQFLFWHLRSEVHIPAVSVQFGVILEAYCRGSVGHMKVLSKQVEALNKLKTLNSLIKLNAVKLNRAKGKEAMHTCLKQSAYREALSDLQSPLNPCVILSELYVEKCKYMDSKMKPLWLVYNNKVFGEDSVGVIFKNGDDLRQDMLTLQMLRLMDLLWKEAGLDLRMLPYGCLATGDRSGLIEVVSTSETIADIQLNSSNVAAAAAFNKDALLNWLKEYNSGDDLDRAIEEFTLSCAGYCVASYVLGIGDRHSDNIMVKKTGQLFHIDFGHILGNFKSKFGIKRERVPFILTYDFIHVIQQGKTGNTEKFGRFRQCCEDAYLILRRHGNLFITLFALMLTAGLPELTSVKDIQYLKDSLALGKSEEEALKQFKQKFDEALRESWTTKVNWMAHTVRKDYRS
UniProt Q12852, sequence (whole entry, looked up): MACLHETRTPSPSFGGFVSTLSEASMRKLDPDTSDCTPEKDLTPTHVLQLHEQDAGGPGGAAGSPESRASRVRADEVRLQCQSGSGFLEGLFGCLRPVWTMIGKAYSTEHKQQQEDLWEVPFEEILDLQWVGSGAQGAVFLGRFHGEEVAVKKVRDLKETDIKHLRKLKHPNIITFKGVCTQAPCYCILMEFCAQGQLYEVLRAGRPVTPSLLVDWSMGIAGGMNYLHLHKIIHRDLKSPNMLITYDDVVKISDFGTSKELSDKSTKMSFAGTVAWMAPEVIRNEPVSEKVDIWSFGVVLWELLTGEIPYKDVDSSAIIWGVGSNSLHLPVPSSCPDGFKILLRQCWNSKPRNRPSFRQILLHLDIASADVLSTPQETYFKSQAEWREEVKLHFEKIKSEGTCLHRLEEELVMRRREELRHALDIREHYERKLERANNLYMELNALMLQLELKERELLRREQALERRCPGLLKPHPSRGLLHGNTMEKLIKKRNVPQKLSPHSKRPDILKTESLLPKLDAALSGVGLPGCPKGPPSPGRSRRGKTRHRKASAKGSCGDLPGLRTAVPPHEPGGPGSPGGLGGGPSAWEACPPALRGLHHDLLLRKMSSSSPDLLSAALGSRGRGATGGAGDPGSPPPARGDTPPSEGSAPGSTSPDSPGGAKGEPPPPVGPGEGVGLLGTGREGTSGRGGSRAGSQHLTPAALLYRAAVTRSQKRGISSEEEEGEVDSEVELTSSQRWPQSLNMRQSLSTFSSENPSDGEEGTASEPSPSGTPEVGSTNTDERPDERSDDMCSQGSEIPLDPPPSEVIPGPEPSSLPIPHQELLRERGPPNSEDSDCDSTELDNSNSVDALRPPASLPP
UniProt O95382, sequence (whole entry, looked up): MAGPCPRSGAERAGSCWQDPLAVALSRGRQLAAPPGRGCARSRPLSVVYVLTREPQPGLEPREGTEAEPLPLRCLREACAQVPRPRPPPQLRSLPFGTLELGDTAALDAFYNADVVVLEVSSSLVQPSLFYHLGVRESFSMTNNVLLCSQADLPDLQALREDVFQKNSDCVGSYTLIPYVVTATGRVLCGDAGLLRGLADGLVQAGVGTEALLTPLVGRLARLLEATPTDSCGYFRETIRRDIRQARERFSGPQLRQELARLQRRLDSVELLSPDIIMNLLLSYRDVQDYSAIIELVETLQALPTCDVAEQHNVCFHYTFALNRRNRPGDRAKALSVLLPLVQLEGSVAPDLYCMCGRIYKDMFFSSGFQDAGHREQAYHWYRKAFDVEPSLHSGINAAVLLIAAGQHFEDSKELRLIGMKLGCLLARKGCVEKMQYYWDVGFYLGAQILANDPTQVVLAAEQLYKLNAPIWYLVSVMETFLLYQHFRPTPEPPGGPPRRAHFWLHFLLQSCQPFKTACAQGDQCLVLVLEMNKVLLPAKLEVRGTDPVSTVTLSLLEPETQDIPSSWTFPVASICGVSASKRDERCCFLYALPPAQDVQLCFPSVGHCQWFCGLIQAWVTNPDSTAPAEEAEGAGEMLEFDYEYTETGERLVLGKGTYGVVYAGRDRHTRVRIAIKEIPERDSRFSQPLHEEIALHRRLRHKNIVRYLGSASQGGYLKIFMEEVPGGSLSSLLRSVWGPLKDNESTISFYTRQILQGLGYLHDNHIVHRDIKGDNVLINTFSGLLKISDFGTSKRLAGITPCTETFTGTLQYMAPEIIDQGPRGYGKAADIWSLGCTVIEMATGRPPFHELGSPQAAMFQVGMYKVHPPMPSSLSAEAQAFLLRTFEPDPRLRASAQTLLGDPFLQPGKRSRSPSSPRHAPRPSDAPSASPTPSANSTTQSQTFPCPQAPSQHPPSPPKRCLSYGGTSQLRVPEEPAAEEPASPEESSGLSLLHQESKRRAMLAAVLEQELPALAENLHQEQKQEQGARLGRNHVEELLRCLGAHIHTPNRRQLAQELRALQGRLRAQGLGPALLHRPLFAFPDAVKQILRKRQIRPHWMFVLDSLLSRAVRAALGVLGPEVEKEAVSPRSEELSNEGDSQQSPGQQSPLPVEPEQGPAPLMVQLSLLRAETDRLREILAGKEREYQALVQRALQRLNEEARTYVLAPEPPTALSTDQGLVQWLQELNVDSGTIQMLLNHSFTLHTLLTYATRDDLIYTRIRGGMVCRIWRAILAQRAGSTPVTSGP
UniProt O95835, sequence (whole entry, looked up): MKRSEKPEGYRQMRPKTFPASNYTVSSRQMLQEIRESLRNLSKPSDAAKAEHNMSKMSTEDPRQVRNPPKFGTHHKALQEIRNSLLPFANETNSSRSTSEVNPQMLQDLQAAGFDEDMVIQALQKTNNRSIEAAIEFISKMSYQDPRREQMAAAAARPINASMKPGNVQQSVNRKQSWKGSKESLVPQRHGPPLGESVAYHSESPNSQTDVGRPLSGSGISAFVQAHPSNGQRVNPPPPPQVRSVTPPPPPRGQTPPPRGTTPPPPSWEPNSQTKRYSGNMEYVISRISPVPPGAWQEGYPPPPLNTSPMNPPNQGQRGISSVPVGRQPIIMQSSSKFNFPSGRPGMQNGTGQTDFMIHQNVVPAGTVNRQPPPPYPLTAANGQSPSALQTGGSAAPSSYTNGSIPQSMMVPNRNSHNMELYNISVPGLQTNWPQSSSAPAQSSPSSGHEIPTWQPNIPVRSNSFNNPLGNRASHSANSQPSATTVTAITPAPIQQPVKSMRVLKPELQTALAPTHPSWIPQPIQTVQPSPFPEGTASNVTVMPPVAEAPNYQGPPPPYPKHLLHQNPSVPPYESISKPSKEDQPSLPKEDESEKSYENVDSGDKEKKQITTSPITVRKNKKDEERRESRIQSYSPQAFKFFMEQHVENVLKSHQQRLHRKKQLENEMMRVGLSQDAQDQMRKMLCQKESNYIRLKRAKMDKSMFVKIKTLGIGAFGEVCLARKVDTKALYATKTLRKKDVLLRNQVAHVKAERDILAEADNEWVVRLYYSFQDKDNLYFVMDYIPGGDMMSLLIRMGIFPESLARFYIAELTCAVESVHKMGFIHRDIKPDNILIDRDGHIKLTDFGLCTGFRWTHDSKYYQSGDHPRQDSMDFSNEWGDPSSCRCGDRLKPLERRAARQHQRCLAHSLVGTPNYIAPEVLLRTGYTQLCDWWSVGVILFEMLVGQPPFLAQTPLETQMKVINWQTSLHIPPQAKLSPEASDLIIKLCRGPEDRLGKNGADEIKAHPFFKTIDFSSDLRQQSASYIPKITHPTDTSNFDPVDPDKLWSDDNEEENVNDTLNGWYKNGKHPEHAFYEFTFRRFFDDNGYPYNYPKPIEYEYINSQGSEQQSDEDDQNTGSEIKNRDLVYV
UniProt Q15349, sequence (whole entry, looked up): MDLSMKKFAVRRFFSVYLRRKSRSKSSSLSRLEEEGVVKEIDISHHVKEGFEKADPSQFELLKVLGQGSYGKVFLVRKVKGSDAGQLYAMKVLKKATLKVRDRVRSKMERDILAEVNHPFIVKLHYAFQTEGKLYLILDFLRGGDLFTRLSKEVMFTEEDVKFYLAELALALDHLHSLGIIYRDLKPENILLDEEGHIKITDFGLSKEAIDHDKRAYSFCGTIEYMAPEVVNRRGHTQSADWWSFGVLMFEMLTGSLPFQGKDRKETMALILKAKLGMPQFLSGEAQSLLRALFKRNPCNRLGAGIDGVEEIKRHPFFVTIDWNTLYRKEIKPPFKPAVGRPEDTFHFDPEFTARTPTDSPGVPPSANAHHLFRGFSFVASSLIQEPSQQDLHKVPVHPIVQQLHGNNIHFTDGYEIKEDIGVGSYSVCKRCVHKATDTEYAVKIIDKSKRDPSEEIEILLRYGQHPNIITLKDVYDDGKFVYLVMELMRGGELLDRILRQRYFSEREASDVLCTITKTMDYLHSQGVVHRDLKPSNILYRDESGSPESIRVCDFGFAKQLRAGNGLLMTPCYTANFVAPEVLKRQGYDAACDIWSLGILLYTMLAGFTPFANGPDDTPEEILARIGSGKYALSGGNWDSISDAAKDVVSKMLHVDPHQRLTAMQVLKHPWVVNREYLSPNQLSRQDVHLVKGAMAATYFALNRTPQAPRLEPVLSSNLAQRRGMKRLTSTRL

Sample 1
SMILES: CC[C@@]1(c2cccc(-c3c(F)cncc3OC)c2)C2=C(Nc3n[nH]cc31)[C@H](F)C(C)(C)CC2=O (single isomer, unassigned)
Tested at: 1 µM
For PIK3CB (Homo sapiens, UniProt P42338); kinase binding, KINOMEscan; reference: DMSO control: remaining binding read 59%.
The remaining binding was 100% (LATS1 (Homo sapiens, UniProt O95835); kinase binding, KINOMEscan; reference: DMSO control).
It gave 95% for remaining binding (TSSK1B (Homo sapiens, UniProt Q9BXA7); kinase binding, KINOMEscan; reference: DMSO control).
Ribosomal protein S6 kinase alpha-2, N-terminal kinase domain (RPS6KA2, Homo sapiens, UniProt Q15349); binding, competition with immobilised ligand — remaining binding: 100%.
It gave 58% for remaining binding (MAP3K12 (Homo sapiens, UniProt Q12852); kinase binding, KINOMEscan; reference: DMSO control).
For CDC42BPB (Homo sapiens, UniProt Q9Y5S2); kinase binding, KINOMEscan; reference: DMSO control: remaining binding read 100%.
It gave 97% for remaining binding (CSNK1D (Homo sapiens, UniProt P48730); binding, competition with immobilised ligand).
For STK32B (Homo sapiens, UniProt Q9NY57); kinase binding, KINOMEscan; reference: DMSO control: remaining binding read 91%.
It gave 100% for remaining binding (CDK11B (Homo sapiens, UniProt P21127); kinase binding, KINOMEscan; reference: DMSO control).
MAP3K6 (Homo sapiens, UniProt O95382); kinase binding, KINOMEscan; reference: DMSO control — remaining binding: 66%.
For MAP4K1 (Homo sapiens, UniProt Q92918); kinase binding, KINOMEscan; reference: DMSO control: remaining binding read 73%.
For PRPF4B (Homo sapiens, UniProt Q13523); binding, competition with immobilised ligand: remaining binding read 100%.

Sample 2
Structure (SMILES): CCN1/C(=C/C=C2\CCCC(/C=C/C3=[N+](CC)c4ccccc4C3(C)C)=C2NCCCCCCCCN2CCC(Nc3nc4ccccc4n3Cc3ccc(F)cc3)CC2)C(C)(C)c2ccccc21
Cell line: U-87 MG
Tested at: concentration not given
Reference: DMSO
refers to: PANK1 mRNA — “log2 fold change”: -1.14.
refers to: FIGN mRNA — “log2 fold change”: -1.97.
It gave 1.16 for “log2 fold change” (refers to: DIPK2A mRNA).
For refers to: MID1 mRNA: “log2 fold change” read -1.31.
The “log2 fold change” was -1.23 (refers to: SSC5D mRNA).
The “log2 fold change” was -2.37 (refers to: S100A4 mRNA).
The “log2 fold change” was 6.27 (refers to: XIRP1 mRNA).
It gave 0.913 for “log2 fold change” (refers to: RBM39 mRNA).
It gave -1.35 for “log2 fold change” (refers to: ESPNL mRNA).
refers to: ACAP2 mRNA — “log2 fold change”: 0.933.
For refers to: MOB2 mRNA: “log2 fold change” read 0.848.

Sample 3
Compound: Cc1ncsc1-c1ccc(C(CO)NC(=O)C2CC(O)CN2C(=O)C(C(C)C)n2cc(-c3ccc(COc4c(-c5c(C)c(F)cc6[nH]ncc56)c(C5CC5)cc5c(N6CC7CC6CN7)nc(OC6CCOCC6)nc45)cc3)nn2)cc1 (stereo not shown)
Technique: qRT-PCR
Host: mouse, PK-59 xenograft
Sample: tumour
Notes: unit not given
refers to: FOSL1; 10 mg/kg, 144 h; reference: vehicle — mRNA level: 0.36 and 0.227 and 0.238.
It gave 0.00561 and 0.00411 and 0.00474 for mRNA level (refers to: ETV4; intravenous, 10 mg/kg, 72 h; reference: vehicle, same time point).
For refers to: DUSP6; 30 mg/kg, 48 h; reference: vehicle: mRNA level read 0.045 and 0.062 and 0.0615.
It gave 0.0351 and 0.0387 for mRNA level (refers to: DUSP6; intravenous, 10 mg/kg, 72 h; reference: vehicle, same time point).
The mRNA level was 0.0394 and 0.0363 and 0.0255 (refers to: MYC; intravenous, 10 mg/kg, 6 h; reference: vehicle, same time point).
refers to: MYC; intravenous, 10 mg/kg, 2 h; reference: vehicle, same time point — mRNA level: 0.0607 and 0.0417 and 0.0677.
For refers to: DUSP4; 30 mg/kg, 24 h; reference: vehicle: mRNA level read 0.194 and 0.112 and 0.145.

Sample 4
Structure (SMILES): COCCCCCCC1CC2C(CCC3(C)C(O)CCC23)c2ccc(O)cc21 (stereo not shown)
It gave 0.978 for “mRNA level ratio” (A549; DNA microarray, refers to: ACTB; 10 µM; reference: untreated cells).
PANC-1; microarray, refers to: CCL8; 10 µM; reference: untreated — “mRNA level ratio”: 32.6.
For PANC-1; DNA microarray, refers to: GZMK; 10 µM; reference: untreated cells: “mRNA level ratio” read 10.2.
The “mRNA level ratio” was 0.809 (SK-OV-3; microarray, refers to: GADD45A; 10 µM; reference: untreated).
SK-OV-3; DNA microarray, refers to: GZMK; 50 µM; reference: untreated cells — “mRNA level ratio”: 17.2.
PANC-1; DNA microarray, refers to: CCL11; 50 µM; reference: untreated cells — “mRNA level ratio”: 1.
The “mRNA level ratio” was 10.4 (PANC-1; DNA microarray, refers to: GZMK; 50 µM; reference: untreated cells).
It gave 2.61 for “mRNA level ratio” (SK-OV-3; microarray, refers to: ISG20L1; 50 µM; reference: untreated).
The “mRNA level ratio” was 0.983 (PANC-1; microarray, refers to: ISG20L1; 10 µM; reference: untreated).
It gave 1 for “mRNA level ratio” (PANC-1; DNA microarray, refers to: CCL22; 10 µM; reference: untreated cells).

For quick reference, copied from above (sample 4):
It gave 1 for “mRNA level ratio” (PANC-1; DNA microarray, refers to: CCL22; 10 µM; reference: untreated cells).
PANC-1; microarray, refers to: CCL8; 10 µM; reference: untreated — “mRNA level ratio”: 32.6.
For PANC-1; DNA microarray, refers to: GZMK; 10 µM; reference: untreated cells: “mRNA level ratio” read 10.2.
It gave 0.978 for “mRNA level ratio” (A549; DNA microarray, refers to: ACTB; 10 µM; reference: untreated cells).
PANC-1; DNA microarray, refers to: CCL11; 50 µM; reference: untreated cells — “mRNA level ratio”: 1.
It gave 2.61 for “mRNA level ratio” (SK-OV-3; microarray, refers to: ISG20L1; 50 µM; reference: untreated).
